Published values from different studies.
Compare with care: the assays were run in different laboratories. ± marks the error that the study gave.

COc1ccc(CCN2CCC(Nc3nc4ccccc4n3Cc3ccc(F)cc3)CC2)cc1  logP (1-octanol/PBS; pH 7.4): 5
CC(C)C[C@@H]1NC(=O)[C@H](C)N(C)C(=O)[C@H](Cc2ccccc2)NCc2ccc(n2C)CNC1=O  Papp (PAMPA; 100 µM, 17 h, pH 6.4): 0.501 ×10⁻⁶ cm/s
CSc1cc(C)nc(SC)c1NC(=O)CN1CCN(CCSc2nc3ccccc3[nH]2)CC1  concentration (mouse Crl:CD1 (ICR) female, cerebrum; intranasal repeated, 162 µg in 7 N HCl, 5 min, 7 days dosing): 83 ng/g
CNCc1ccc(-c2[nH]c3cc(F)cc4c3c2CCNC4=O)cc1  AUC(0-12 h) (human, plasma; oral, 600 mg twice daily, steady state, median): 14700 ng·h/mL
Cl.Cl.N[C@@H](CSSC[C@H](N)C(=O)N1CCOCC1)C(=O)N1CCOCC1  urine concentration (Slc3a1 knockout male mice, urine; oral gavage, 29.3 µmol/kg daily, 1 week dosing, 4 h after last dose): 2.09 ± 0.62 µM
CC1(C)CC[N+](C)(CC(=O)OC2CCCCCCCCCCC2)CC1.[I-]  half-life (metabolic stability; human, liver microsomes; 1 µM, pH 7.4): < 2 min
COc1cc2c(cc1OC)[C@@H]1Cc3ccc(OC)c(OC)c3CN1CC2  measured concentration (rat plasma QC sample; 640 ng/mL nominal, 24 h, medium QC level autosampler stability): 639 ± 13.5 ng/mL
CCCSc1nc(N[C@@H]2C[C@H]2c2ccc(F)c(F)c2)c2nnn([C@@H]3C[C@H](OCCO)[C@@H](O)[C@H]3O)c2n1  AUC (Wistar Han rat, female, plasma; oral, 20 mg/kg/day, day 1, carcinogenicity study): 21.1 µM·h
CC(=O)O[C@H]1C(=O)[C@@]2(C)[C@H]([C@H](OC(=O)c3ccccc3)[C@]3(O)C[C@H](OC(=O)[C@H](O)[C@@H](NC(=O)c4ccccc4)c4ccccc4)C(C)=C1C3(C)C)[C@]1(OC(C)=O)CO[C@@H]1C[C@@H]2O  volume of distribution at steady state (non-compartmental; human patients, plasma; intravenous, 200 mg/m^2, added: lenvatinib 6 mg twice daily): 80.9 ± 16.6 L
O=C(/C=C/c1cccc(S(=O)(=O)Nc2ccccc2)c1)NO  volume of distribution (Vss) (human, normal liver function; intravenous, 400 mg/m^2, 30 min infusion, single dose, mean): 30.1 L/m²
Cc1ccc(NC(=O)c2ccc(CN3CCN(C)CC3)cc2)cc1Nc1nccc(-c2cncc(-c3oncc3C)c2)n1  dose-normalised AUC(0-inf) (Parkinson's disease patients, plasma; oral, 100 mg once daily, day 7, 7-day dosing, mean): 457 ng·h/mL/mg
CC(C)=CCC[C@](C)(O[C@@H]1O[C@H](CO)[C@@H](O)[C@H](O)[C@H]1O)[C@H]1CC[C@]2(C)[C@@H]1[C@H](O)C[C@@H]1[C@@]3(C)CC[C@H](O[C@@H]4O[C@H](CO)[C@@H](O)[C@H](O)[C@H]4O[C@@H]4O[C@H](CO)[C@@H](O)[C@H](O)[C@H]4O)C(C)(C)[C@@H]3CC[C@]12C  post-preparative stability accuracy (rat, extracted plasma QC samples; 0.1 µg/mL, 24 h, 15 °C, autosampler): 109 ± 7.8%
NC(=O)CC[C@@H]1NC(=O)[C@H](Cc2ccccc2)NC(=O)[C@H](Cc2ccc(O)cc2)NC(=O)CCSSC[C@@H](C(=O)N2CCC[C@H]2C(=O)N[C@H](CCCN=C(N)N)C(=O)NCC(N)=O)NC(=O)[C@H](CC(N)=O)NC1=O  stock solution stability (UPLC-MS/MS; water; 0.1 mg/mL, 15 days, 2-8 °C; reference: fresh stock solution): 104%
GGTFXGYWADLXAF (side-chain stapled)  helicity (CD; peptide, water/acetonitrile 1:1; 10 µM, non-stabilised peptide): 17%
Oc1ccc(C=Cc2cc(O)cc(O)c2)cc1  mean residence time (male ApcMin/+ mice, plasma; oral gavage, 45 µg/kg, added: BaP 100 µg/kg): 1.6 ± 0.018 h
COc1ccc(-c2cc(=O)c3c(OC)c(OC)c(OC)c(OC)c3o2)cc1  tissue to peel content ratio (C57BL/6 mouse, male, small intestine; oral, 1% w/w in diet, 6 weeks, orange peel extract diet; reference: content in orange peel): 2.98%
CCCOc1ccc([C@H]2CNC(=O)N2c2ccc3[nH]cnc3c2)cc1  CSF concentration (human, elderly, fasted, cerebrospinal fluid; oral, 800 mg twice daily, tablet, 12 h, day 11, minimum, estimated): 54.2 ng/mL
CC[C@H](C)[C@@H]1NC(=O)[C@H](Cc2ccc(O)cc2)NC(=O)[C@@H](N)CSSC[C@@H](C(=O)N2CCC[C@H]2C(=O)N[C@@H](CC(C)C)C(=O)NCC(N)=O)NC(=O)[C@H](CC(N)=O)NC(=O)[C@H](CCC(N)=O)NC1=O  half-life (microdialysis, radioimmunoassay; knock-out male mice lacking compound, amygdala extracellular fluid; intranasal, 12 µg, time to half of Cmax): 39.6 ± 16.1 min
Cc1cnc(NC(=O)C2=C(O)c3ccccc3S(=O)(=O)N2C)s1  hepatocyte vacuolization score (Sprague-Dawley rat, male, liver; oral, 0.4 mg/kg, 24 h, single low dose; direction not given): 0
COc1ccc(-c2oc3c(OC)c(OC)c(OC)c(O)c3c(=O)c2OC)cc1OC  tissue to peel content ratio (C57BL/6 mouse, male, colon; oral, 1% w/w in diet, 6 weeks, orange peel extract diet; reference: content in orange peel): 1.01%
Cc1ccc(NC(=O)CSc2nnc(Cn3cnc4c3c(=O)n(C)c(=O)n4C)n2-c2ccccc2)cc1C  haemolysis (bovine erythrocytes; 1 mg/mL, 30 min, pH 7.4, 37 °C): 3.9%
N=C(N)NCCC[C@H](N)C(=O)N1CCC[C@H]1C(=O)N1CCC[C@H]1C(=O)NCC(=O)N[C@@H](Cc1ccccc1)C(=O)N[C@@H](CO)C(=O)N1CCC[C@H]1C(=O)N[C@@H](Cc1ccccc1)C(=O)O  change in serum concentration (LC-MS/MS; human serum; concentration not given, 4 h, room temperature, tube with gel separator; reference: initial concentration): -82.9 ± 3%
NC(N)=O  dialysis clearance (in vitro haemodialysis; buffered aqueous solution; concentration not given, blood 50, dialysate 250 mL/min): 50 mL/min
CNc1nc(Nc2ccc(-n3cnc(C)n3)c(OC)c2)nc2c1CC[C@H]2c1ccc(F)cc1  AUC(0-inf) (human, plasma; oral, 100 mg, single dose, healthy volunteers): 5140 ng·h/mL
O=C(O)/C=C/C(=O)NCCCC[C@@H]1NC(=O)[C@H](CCCCNC(=O)/C=C/C(=O)O)NC1=O  AUC(0-240 min) ratio (human, type 1 or 2 diabetes patients, serum; dose not given, Technosphere inhaled insulin, meal challenge; reference: during URTI over post-URTI): 1.1
CCCC[C@H](NC(C)=O)C(=O)N[C@H]1CCC(=O)NC[C@@H](C(=O)N[C@@H](Cc2c[nH]c3ccccc23)C(N)=O)NC(=O)[C@H](CCCNC(=N)N)NC(=O)[C@@H](Cc2ccccc2)NC(=O)[C@H](Cc2c[nH]cn2)NC1=O  Tmax (female rat, plasma; subcutaneous, 5 mg/kg/day, multiple doses, once daily): 15 min
CCOc1cc(C(C)(C)C)ccc1C1=N[C@@](C)(c2ccc(Cl)cc2)[C@@](C)(c2ccc(Cl)cc2)N1C(=O)N1CCN(CCCS(C)(=O)=O)CC1  Tmax (athymic nude mice, orthotopic GBM, contralateral brain hemisphere; oral, 100 mg/kg): 480 min
CC[C@H]1OC(=O)[C@H](C)[C@@H](O[C@H]2C[C@@](C)(OC)[C@@H](O)[C@H](C)O2)[C@H](C)[C@@H](O[C@@H]2O[C@H](C)C[C@H](N(C)C)[C@H]2O)[C@](C)(OC)C[C@@H](C)C(=O)[C@H](C)[C@@H](O)[C@]1(C)O  discontinuation due to adverse events (healthy human subjects; oral, dose not given, twice daily): 5.3%
C[C@]12CC[C@@H]3c4ccc(O)cc4CC[C@H]3[C@@H]1C[C@@H](O)[C@@H]2O  median serum concentration (GC-MS; breast cancer women on NSAI, serum; vaginal, 0.03 mg, 8 h, day 0): 0 ng/mL
CN1CC[C@@H](NC(=O)Nc2ccc(C#N)cc2)C[C@@H]1c1nc2ccccc2[nH]1  unbound Cmax (human, normal hepatic function, plasma; oral, 100 mg, single dose, fasted): 75.5 ± 19.1 ng/mL
Cc1ccc(NC(=O)c2ccc(CN3CCNCC3)cc2)cc1Nc1nccc(-c2cccnc2)n1  volume of distribution (human, plasma; 400 mg/day imatinib, day 14 of cycle 1, metabolite of imatinib, mean, added: IL-2 6 MIU/day days 10-14): 532 L
CCN(CC)CCNC(=O)c1c(C)[nH]c(/C=C2\C(=O)Nc3ccc(F)cc32)c1C  minimum trough plasma concentration (human, plasma; oral, 15 mg/m2, day 21): 8.9 ng/mL
CNCc1ccc(-c2[nH]c3cc(F)cc4c3c2CCNC4=O)cc1  volume of distribution (human cancer patients, plasma; intravenous, 4 mg/m2, day 4, added: temozolomide 100): 403 L
Nc1nc2cccc(-c3ccc(CN4CCS(=O)(=O)CC4)cc3)n2n1  metabolite/parent plasma concentration (human, plasma; 30 to 300 mg filgotinib, steady state; reference: compound over filgotinib): ~13 fold
CC1=C2C[C@H]3[C@@H](CC[C@@H]4C[C@H](NS(C)(=O)=O)CC[C@@]43C)[C@@H]2CC[C@@]2(C1)O[C@@H]1C[C@H](C)CN[C@H]1[C@H]2C  Tmax (patients, plasma; oral, 200 mg single, day -7, cycle 1): 240 min
CCCCCCCC(=O)OC[C@H](NC(=O)[C@H](CO)NC(=O)CN)C(=O)N[C@H](C(=O)N[C@@H](CC(C)C)C(=O)N[C@@H](CO)C(=O)N1CCC[C@H]1C(=O)N[C@@H](CCC(=O)O)C(=O)N[C@@H](Cc1c[nH]cn1)C(=O)N[C@@H](CCC(N)=O)C(=O)N[C@@H](CCCNC(=N)N)C(=O)N[C@H](C(=O)N[C@@H](CCC(N)=O)C(=O)N[C@@H](CCC(N)=O)C(=O)N[C@@H](CCCNC(=N)N)C(=O)N[C@@H](CCCCN)C(=O)N[C@@H](CCC(=O)O)C(=O)N[C@@H](CO)C(=O)N[C@@H](CCCCN)C(=O)N[C@@H](CCCCN)C(=O)N1CCC[C@H]1C(=O)N1CCC[C@H]1C(=O)N[C@@H](C)C(=O)N[C@@H](CCCCN)C(=O)N[C@@H](CC(C)C)C(=O)N[C@@H](CCC(N)=O)C(=O)N1CCC[C@H]1C(=O)N[C@@H](CCCNC(=N)N)C(=O)O)C(C)C)[C@H](c1ccccc1)c1c[nH]c2ccccc12  HPLC retention (RP-HPLC Kinetex Biphenyl; acetonitrile/water TFA gradient): 33 %B
